Assay results of several laboratories.
Numbered parts are unrelated; each lists some results of a single study.
Chain of UniProt Q14289 (whole entry, looked up): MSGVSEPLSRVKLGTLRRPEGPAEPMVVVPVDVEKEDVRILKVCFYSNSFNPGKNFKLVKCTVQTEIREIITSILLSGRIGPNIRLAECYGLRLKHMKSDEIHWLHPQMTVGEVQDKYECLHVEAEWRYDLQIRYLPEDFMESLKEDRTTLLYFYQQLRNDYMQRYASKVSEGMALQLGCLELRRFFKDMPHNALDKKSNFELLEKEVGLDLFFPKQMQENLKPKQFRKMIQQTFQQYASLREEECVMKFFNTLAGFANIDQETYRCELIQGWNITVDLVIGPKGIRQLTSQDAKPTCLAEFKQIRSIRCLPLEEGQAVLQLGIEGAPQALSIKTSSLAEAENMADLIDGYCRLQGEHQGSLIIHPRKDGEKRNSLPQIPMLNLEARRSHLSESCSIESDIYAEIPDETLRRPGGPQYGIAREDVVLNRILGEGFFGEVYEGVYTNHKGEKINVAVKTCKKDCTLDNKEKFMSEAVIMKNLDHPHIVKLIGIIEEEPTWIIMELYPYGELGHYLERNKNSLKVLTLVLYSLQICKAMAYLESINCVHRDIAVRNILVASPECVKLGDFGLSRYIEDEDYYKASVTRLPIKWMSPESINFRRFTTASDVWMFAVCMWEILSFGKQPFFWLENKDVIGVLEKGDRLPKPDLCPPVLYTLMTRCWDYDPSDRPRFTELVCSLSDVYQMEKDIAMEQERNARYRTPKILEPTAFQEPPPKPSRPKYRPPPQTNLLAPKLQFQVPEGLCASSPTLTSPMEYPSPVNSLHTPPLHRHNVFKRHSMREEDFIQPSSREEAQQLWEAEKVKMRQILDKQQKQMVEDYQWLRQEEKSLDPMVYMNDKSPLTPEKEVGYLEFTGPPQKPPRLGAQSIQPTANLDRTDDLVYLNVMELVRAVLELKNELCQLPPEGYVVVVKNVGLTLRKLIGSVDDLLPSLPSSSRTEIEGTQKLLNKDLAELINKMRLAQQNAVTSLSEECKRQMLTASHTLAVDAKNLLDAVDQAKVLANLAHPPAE
Chain of UniProt P54764 (whole entry, looked up): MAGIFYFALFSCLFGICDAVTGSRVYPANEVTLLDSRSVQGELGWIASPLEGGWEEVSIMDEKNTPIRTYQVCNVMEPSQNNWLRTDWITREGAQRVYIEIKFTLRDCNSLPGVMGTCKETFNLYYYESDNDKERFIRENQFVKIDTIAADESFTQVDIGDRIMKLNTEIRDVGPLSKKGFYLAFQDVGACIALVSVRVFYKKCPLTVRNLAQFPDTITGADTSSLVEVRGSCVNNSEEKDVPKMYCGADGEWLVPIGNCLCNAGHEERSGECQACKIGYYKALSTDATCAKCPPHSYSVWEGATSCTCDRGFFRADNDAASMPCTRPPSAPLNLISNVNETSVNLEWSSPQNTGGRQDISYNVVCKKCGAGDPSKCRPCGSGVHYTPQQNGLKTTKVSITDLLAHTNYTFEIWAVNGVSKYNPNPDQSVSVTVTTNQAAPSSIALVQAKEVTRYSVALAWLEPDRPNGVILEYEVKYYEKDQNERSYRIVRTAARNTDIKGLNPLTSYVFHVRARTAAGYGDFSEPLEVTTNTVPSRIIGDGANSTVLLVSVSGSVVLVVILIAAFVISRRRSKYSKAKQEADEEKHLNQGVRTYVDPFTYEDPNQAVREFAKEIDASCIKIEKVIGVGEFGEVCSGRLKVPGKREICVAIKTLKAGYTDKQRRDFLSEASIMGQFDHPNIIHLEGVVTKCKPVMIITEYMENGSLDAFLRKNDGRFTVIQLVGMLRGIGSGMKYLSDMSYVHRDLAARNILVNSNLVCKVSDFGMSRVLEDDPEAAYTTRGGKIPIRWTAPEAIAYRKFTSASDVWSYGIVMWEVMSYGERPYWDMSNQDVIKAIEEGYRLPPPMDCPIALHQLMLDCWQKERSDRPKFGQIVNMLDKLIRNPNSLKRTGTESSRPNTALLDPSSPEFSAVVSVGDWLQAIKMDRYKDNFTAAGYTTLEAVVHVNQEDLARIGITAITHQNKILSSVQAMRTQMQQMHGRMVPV
Chain of UniProt Q9HCP0 (whole entry, looked up): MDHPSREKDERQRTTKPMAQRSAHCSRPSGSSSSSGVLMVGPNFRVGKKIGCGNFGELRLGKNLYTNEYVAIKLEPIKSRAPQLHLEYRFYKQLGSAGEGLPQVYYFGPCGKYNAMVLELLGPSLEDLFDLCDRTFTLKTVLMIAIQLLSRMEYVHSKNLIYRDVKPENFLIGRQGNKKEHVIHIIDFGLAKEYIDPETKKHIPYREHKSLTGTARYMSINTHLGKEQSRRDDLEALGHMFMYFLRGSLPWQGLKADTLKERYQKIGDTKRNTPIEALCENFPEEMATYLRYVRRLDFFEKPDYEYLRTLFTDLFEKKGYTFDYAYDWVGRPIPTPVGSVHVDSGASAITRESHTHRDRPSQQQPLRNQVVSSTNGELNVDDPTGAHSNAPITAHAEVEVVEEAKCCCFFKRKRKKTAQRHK
Chain of UniProt O75747 (whole entry, looked up): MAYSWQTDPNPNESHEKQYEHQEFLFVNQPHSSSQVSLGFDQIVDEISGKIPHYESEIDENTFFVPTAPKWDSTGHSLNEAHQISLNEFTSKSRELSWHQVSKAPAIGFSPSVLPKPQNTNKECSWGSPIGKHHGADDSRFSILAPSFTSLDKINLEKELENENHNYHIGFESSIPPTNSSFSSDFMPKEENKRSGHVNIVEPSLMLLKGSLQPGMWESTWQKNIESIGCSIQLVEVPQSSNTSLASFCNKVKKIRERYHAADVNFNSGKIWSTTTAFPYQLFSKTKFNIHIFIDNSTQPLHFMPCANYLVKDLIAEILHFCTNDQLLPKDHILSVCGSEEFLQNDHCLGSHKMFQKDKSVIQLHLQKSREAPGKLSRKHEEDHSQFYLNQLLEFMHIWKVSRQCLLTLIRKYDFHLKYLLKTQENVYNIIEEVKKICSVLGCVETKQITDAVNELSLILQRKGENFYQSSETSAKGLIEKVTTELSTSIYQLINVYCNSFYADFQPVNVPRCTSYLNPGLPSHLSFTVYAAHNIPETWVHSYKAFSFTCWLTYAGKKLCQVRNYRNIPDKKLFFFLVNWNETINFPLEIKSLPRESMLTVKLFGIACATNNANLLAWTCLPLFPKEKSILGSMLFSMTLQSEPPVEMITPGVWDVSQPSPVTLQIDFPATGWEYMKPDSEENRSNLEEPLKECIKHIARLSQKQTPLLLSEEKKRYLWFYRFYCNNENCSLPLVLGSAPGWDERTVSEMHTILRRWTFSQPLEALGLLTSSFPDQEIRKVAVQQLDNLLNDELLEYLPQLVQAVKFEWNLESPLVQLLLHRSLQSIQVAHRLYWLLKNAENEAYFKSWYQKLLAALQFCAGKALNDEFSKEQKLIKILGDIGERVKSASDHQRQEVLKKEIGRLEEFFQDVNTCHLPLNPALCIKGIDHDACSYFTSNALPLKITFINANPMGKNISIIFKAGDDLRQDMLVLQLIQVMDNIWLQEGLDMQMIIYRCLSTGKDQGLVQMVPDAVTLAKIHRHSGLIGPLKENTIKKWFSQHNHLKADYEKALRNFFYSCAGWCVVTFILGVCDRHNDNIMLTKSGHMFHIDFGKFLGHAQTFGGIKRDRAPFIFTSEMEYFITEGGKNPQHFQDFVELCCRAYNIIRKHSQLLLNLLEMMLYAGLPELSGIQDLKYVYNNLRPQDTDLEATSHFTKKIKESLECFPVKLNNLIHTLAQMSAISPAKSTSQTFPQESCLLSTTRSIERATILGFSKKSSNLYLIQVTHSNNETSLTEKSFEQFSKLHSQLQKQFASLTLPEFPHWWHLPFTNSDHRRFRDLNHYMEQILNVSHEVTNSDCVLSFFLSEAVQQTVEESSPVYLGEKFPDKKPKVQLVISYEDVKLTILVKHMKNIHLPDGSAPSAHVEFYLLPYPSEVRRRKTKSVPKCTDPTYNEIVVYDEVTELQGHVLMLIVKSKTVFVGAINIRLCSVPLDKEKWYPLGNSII
Chain of UniProt Q16620 (whole entry, looked up): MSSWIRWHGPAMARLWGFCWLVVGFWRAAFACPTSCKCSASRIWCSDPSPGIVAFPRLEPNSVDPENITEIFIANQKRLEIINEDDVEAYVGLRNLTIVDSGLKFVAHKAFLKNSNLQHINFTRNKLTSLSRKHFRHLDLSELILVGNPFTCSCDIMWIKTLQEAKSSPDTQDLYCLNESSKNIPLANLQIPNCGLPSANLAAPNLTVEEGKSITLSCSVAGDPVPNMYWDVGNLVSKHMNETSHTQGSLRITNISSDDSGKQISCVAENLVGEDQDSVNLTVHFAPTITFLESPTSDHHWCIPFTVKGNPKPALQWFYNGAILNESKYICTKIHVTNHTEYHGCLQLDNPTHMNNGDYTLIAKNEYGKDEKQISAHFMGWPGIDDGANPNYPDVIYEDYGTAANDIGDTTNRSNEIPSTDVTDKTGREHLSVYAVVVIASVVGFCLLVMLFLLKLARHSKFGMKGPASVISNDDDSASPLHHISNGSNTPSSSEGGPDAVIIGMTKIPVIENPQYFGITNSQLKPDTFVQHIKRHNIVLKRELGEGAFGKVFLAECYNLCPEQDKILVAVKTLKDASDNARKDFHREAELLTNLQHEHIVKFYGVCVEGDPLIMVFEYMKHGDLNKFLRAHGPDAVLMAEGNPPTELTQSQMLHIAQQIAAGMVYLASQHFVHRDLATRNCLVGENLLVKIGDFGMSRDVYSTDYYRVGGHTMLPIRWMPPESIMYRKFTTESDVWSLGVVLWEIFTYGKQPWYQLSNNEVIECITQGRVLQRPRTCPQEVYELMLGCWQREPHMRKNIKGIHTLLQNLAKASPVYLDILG

Study 1
Target: Cyclin-dependent kinase 9, with cyclin T1 (CDK9, Homo sapiens, UniProt P50750)
Chain of UniProt P50750 (whole entry, looked up): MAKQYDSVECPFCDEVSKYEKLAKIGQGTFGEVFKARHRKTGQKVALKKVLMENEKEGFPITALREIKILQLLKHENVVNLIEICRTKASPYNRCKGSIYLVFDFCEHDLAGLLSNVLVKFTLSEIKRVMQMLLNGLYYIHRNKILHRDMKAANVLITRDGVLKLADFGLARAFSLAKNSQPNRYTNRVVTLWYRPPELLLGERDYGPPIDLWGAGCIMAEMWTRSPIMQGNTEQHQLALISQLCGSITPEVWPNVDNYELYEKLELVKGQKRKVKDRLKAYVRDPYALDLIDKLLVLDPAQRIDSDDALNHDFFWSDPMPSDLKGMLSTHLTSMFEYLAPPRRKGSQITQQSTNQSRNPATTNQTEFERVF
Effect on: enzyme activity
Mode: inhibitor
Concentration: 0.5 µM
Baseline: control
Compound | remaining activity
O=C1c2ccccc2-c2n[nH]c3cccc1c23 | 99.3%
O=C(NC(NC(=S)Nc1ccc(F)c([N+](=O)[O-])c1)C(Cl)(Cl)Cl)C(c1ccccc1)c1ccccc1 (stereo not shown) | 95%
CCN(CC)C(=O)c1ccc(Nc2nc(OCC3CCCCC3)c3[nH]cnc3n2)cc1 | 88.8%
Cc1cn(-c2cc(NC(=O)c3ccc(C)c(Nc4nccc(-c5cccnc5)n4)c3)cc(C(F)(F)F)c2)cn1 | 94.7%
Cc1cc2ncc(-c3ccccc3)nc2cc1C | 93.9%
CCOc1nc(NC(=O)Cc2cc(OC)ccc2OC)cc(N)c1C#N | 100%
CCN(CC)CCNC(=O)c1c(C)[nH]c(/C=C2\C(=O)Nc3ccc(Cl)cc32)c1C | 58.8%
CN([C@@H](Cc1ccc(OS(=O)(=O)c2cccc3cnccc23)cc1)C(=O)N1CCN(c2ccccc2)CC1)S(=O)(=O)c1cccc2cnccc12 | 100%
C[C@@H]1CCN(C(=O)CC#N)C[C@@H]1N(C)c1ncnc2[nH]ccc12 | 100%
Ic1cccc(CSc2nnc(-c3ccncc3)o2)c1 | 109%
O=c1cc(-c2cccc3c2Sc2ccccc2S3)oc(N2CCOCC2)c1 | 100%
COc1cc2ncnc(Nc3cccc(Cl)c3)c2cc1OC | 85.1%
Cc1nc2cc3nc(-c4cccs4)cnc3cc2n1C | 88.3%
COc1cc2c(cc1OC)-c1[nH]nc(Nc3cccc(F)c3)c1C2 | 97.6%
c1ccc(-c2cnc(Nc3ccc(OCCN4CCCC4)cc3)s2)cc1 | 66.1%
Nc1cccc(-c2cc3c(Oc4cccc(O)c4)ncnc3[nH]2)c1 | 63.2%
N#Cc1c(NC(=O)c2cccc3ccccc23)sc2c1CCCC2 | 100%
CN(C)C[C@H]1CCn2c(c(C3=C(c4cn(C)c5ccccc45)C(=O)NC3=O)c3ccccc32)C1 | 39.6%
N#C/C(=C\c1ccc(O)c(O)c1)C(=O)NCc1ccccc1 | 74.9%
COc1cc2ncnc(Nc3ccc(O)c(Br)c3)c2cc1OC | 91.4%
Cn1nc2c3c(cccc31)C(=O)c1ccccc1-2 | 94.7%
CCN(CC)CCNC(=O)c1c(C)[nH]c(/C=C2\C(=O)Nc3ccc(F)cc32)c1C | 88.7%
O=C(Nc1cccc(Nc2nccc(Nc3cccc(C(F)(F)F)c3)n2)c1)C1CC1 | 86.8%
O=C1C(Cl)=C(N2C(=O)CCC2=O)C(=O)c2ccccc21 | 101%
c1ccc(-c2[nH]ncc2-c2ccnc3ccccc23)nc1 | 80%

Study 2
SMILES: C=CC(=O)N1CCC[C@@H](n2nc(-c3ccc(Oc4ccccc4)cc3)c3c(N)ncnc32)C1
Mode: inhibitor
Concentration: 1 µM
target | effect on | inhibition
Mitogen-activated protein kinase 4 (MAPK4, Homo sapiens, UniProt P31152) | enzyme activity | 3%
Receptor-type tyrosine-protein kinase FLT3 (FLT3, Homo sapiens, UniProt P36888, D835V) |  | 91%
Bone morphogenetic protein receptor type-1A (BMPR1A, Homo sapiens, UniProt P36894) | enzyme activity | 0%
Phosphatidylinositol 4,5-bisphosphate 3-kinase catalytic subunit gamma isoform (PIK3CG, Homo sapiens, UniProt P48736) | enzyme activity | 26%
Mast/stem cell growth factor receptor Kit (KIT, Homo sapiens, UniProt P10721, D816H) |  | 29%
Ephrin type-A receptor 6 (EPHA6, Homo sapiens, UniProt Q9UF33) |  | 4%
Phosphatidylinositol 3-kinase C2 domain-containing subunit gamma (PIK3C2G, Homo sapiens, UniProt O75747) | enzyme activity | 21%
Casein kinase I isoform gamma-2 (CSNK1G2, Homo sapiens, UniProt P78368) |  | 15%
Protein-tyrosine kinase 2-beta (PTK2B, Homo sapiens, UniProt Q14289) |  | 19%
Dual specificity mitogen-activated protein kinase kinase 5 (MAP2K5, Homo sapiens, UniProt Q13163) |  | 100%
Ephrin type-A receptor 7 (EPHA7, Homo sapiens, UniProt Q15375) | enzyme activity | 7%
Mitogen-activated protein kinase kinase kinase 1 (MAP3K1, Homo sapiens, UniProt Q13233) | enzyme activity | 4%

Study 3
SMILES: FC(F)(F)c1ccc2c(c1)nc(-c1cccnc1)n2C1CC1
Technique: competition with immobilised ligand
Concentration: 1 µM
target | effect on | remaining binding [%]
Serine/threonine-protein kinase DCLK1 (DCLK1, Homo sapiens, UniProt O15075) | cell-free assay | 84
STE20-like serine/threonine-protein kinase (SLK, Homo sapiens, UniProt Q9H2G2) | cell-free assay | 100
Cyclin-dependent kinase-like 3 (CDKL3, Homo sapiens, UniProt Q8IVW4) | cell-free assay | 96
Serine/threonine-protein kinase Chk2 (CHEK2, Homo sapiens, UniProt O96017) | cell-free assay | 100
Serine/threonine-protein kinase MAK (MAK, Homo sapiens, UniProt P20794) | cell-free assay | 100
Dual specificity testis-specific protein kinase 1 (TESK1, Homo sapiens, UniProt Q15569) | cell-free assay | 100
Myosin light chain kinase (MYLK3, Homo sapiens, UniProt Q32MK0) | cell-free assay | 100
Homeodomain-interacting protein kinase 4 (HIPK4, Homo sapiens, UniProt Q8NE63) | cell-free assay | 100
Serine/threonine-protein kinase 17A (STK17A, Homo sapiens, UniProt Q9UEE5) | cell-free assay | 100
NT-3 growth factor receptor (NTRK3, Homo sapiens, UniProt Q16288) | cell-free assay | 100
Serine/threonine-protein kinase PLK4 (PLK4, Homo sapiens, UniProt O00444) | cell-free assay | 78
Tyrosine-protein kinase ABL1, non-phosphorylated (ABL1, Homo sapiens, UniProt P00519, F317I) | binding | 100
Platelet-derived growth factor receptor alpha (PDGFRA, Homo sapiens, UniProt P16234) | cell-free assay | 100
Ephrin type-A receptor 4 (EPHA4, Homo sapiens, UniProt P54764) | cell-free assay | 100
5'-AMP-activated protein kinase catalytic subunit alpha-1 (PRKAA1, Homo sapiens, UniProt Q13131) | cell-free assay | 100

Study 4
Structure (SMILES): CN1CCN(C(=O)c2ccc(NC(=O)Nc3ccc(N(C)c4ccnc(Nc5ccc(CS(C)(=O)=O)cc5)n4)cc3)cc2)CC1
Concentration: 1 µM
target | technique | refers to | setting | baseline | remaining binding [%]
Casein kinase I isoform gamma-1 (CSNK1G1, Homo sapiens, UniProt Q9HCP0) | competitive binding panel |  |  | vehicle | 100
BDNF/NT-3 growth factors receptor (NTRK2, Homo sapiens, UniProt Q16620) | competitive binding |  | TRKB |  | 11
Tyrosine-protein kinase Lyn (LYN, Homo sapiens, UniProt P07948) | competitive binding panel |  |  | vehicle | 71
Homeodomain-interacting protein kinase 2 (HIPK2, Homo sapiens, UniProt Q9H2X6) | competitive binding panel |  |  | vehicle | 77
Mitogen-activated protein kinase 6 (MAPK6, Homo sapiens, UniProt Q16659) | competitive binding panel | ERK3 |  | vehicle | 100
5'-AMP-activated protein kinase catalytic subunit alpha-2 (PRKAA2, Homo sapiens, UniProt P54646) | competitive binding |  | AMPK-alpha2 |  | 87
Phosphatidylinositol 4,5-bisphosphate 3-kinase catalytic subunit alpha isoform (PIK3CA, Homo sapiens, UniProt P42336, E545A) | competitive binding panel |  |  | vehicle | 100
TRAF2 and NCK-interacting protein kinase (TNIK, Homo sapiens, UniProt Q9UKE5) | competitive binding panel |  |  | vehicle | 23
Cytoplasmic tyrosine-protein kinase BMX (BMX, Homo sapiens, UniProt P51813) | competitive binding panel |  |  | vehicle | 59
